# Experimental data from different studies.
# Protocols differ between the studies behind these lines. Several values in a cell are separate wells, animals, samples, runs or records. ± marks the error that the study gave.
# Target: Cytochrome P450 2C9 (CYP2C9, Homo sapiens, UniProt P11712)
# Chain of UniProt P11712 (whole entry, looked up): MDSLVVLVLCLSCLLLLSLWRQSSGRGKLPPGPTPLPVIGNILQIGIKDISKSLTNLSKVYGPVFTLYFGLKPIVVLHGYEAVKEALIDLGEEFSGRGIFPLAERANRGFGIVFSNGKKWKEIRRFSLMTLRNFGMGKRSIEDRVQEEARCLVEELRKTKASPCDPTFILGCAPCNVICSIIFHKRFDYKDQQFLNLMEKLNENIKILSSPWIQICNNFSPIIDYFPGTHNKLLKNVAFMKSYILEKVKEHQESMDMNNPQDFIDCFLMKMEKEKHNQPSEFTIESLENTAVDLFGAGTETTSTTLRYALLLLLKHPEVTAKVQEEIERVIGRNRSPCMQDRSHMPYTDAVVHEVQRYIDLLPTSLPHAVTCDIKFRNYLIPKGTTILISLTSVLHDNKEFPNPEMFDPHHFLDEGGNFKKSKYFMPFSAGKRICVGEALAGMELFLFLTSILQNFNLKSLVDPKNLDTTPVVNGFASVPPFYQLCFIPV
SMILES,test,test system,setting,scale,measurement,value
N#Cc1cc(NC(=O)C2c3ccccc3C(=O)N(CC(F)(F)F)C2c2cccnc2)ccc1F (racemic),"enzyme activity, inhibitor",liver microsomes,10 µM,,inhibition,25%
O=C(NS(=O)(=O)c1cccs1)c1cc2ccccc2n1Cc1ccc(Br)c2ccccc12,inhibitor,,,,IC50,2.77 µM
CNC(=O)C1CCCN(C(=O)C2CC3CCC2N3C(=O)[C@@H]2C[C@@H](O)CN2C(=O)NCc2cccc(Cl)c2F)C1 (mixture of isomers),preincubation without NADPH,human,0.617 µM,relative to: negative control,remaining activity,93.7% and 98.1% and 98.2%
C=CC(=O)Nc1cc(Nc2nccc(-c3cn(C)c4ccccc34)n2)c(OCC(F)(F)F)nc1N(C)CCNC,substrate,,"3 µM, 60 min, 2C9 isoform, liver abundance-normalized",,contribution to metabolite formation,12.9%
COc1ccc2c(c1)C(C)(C)C1=C(Cl)C(=O)C(Cl)=CC1=N2,"O-demethylation, substrate",,"pH 7.4, 37 °C",,Vmax,1.31 ± 0.04 nmol/min/nmol P450
O=C(CN1CN(c2ccccc2)C2(CCN(C(=O)c3ccc4[nH]ncc4c3)CC2)C1=O)Nc1ccccn1,"enzyme activity, inhibitor",,,,IC50,> 50 µM
Cc1nc2ccc(S(=O)(=O)n3nc(SCc4ccc(Cl)cc4)nc3N)cc2s1,"enzyme activity, inhibitor","human, liver microsomes",10 µM,,inhibition,88%
O=C(CN1CN(c2ccccc2)C2(CCN(C(=O)c3ccc4[nH]ncc4n3)CC2)C1=O)NCC(F)(F)F,"enzyme activity, inhibitor",,,,IC50,11 µM
COC1C(c2ccc(Cl)c(Cc3ccc(OC4CCOC4)cc3)c2)OC(CO)C(O)C1O (stereo not shown),"enzyme activity, inhibitor","human, liver microsomes","10 µM, 10 min",,inhibition,16.8%
O=C(CN1CN(c2cccc(F)c2)C2(CCN(C(=O)c3cnc4[nH]ncc4c3)CC2)C1=O)NCC(F)(F)F,"enzyme activity, inhibitor",,,,IC50,17 µM
Nc1nc(SCc2ccc(Cl)cc2)nn1S(=O)(=O)c1ccc2c(c1)CCO2,"enzyme activity, inhibitor","human, liver microsomes",10 µM,,inhibition,82%
C=C(NC(=O)c1csc(-c2nc3c(cc2O)-c2nc(cs2)C(=O)NC(C(C)O)C(=O)NC(=C(C)OC)c2nc(cs2)C(=O)NC2c4nc(cs4)C(=O)NC(COC(=O)c4c5c6c(cccc6n4O)COC(=O)C(OC4CC(C)(O)C(N(C)C)C(C)O4)C2OC5)c2nc-3cs2)n1)C(N)=O (stereo not shown),"enzyme activity, inhibitor, substrate cocktail",pooled human liver microsomes,"up to 50 µM, pH 7.4",,remaining activity,> 70%
O=C(CN1CN(c2ccccc2)C2(CCN(C(=O)c3ccc4[nH]ncc4c3)CC2)C1=O)N(CCO)CC(F)(F)F,"enzyme activity, inhibitor",,,,IC50,1.1 µM
